Assay results collected from several papers.
Every numbered part comes from another study and shows a few of its results, in no order.

Sample 1
Target: Histone acetyltransferase KAT6A, winged helix 1, GST fusion (KAT6A, Homo sapiens, UniProt Q92794, residues 1-85)
Technique: protein binding microarray
Form: double-stranded DNA, one strand shown
Medium: in vitro
Tested at: not given
Notes: 8-mer, flanks averaged, mean of 2 arrays, mostly near background
Relative to: not given
Reading: higher = stronger binding
Target sequence (chain): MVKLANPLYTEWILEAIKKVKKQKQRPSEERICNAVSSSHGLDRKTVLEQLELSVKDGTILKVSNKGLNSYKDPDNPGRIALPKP
Strand | E-score
CACTATTA | -0.0815
TCAGTGCA | -0.213
ACGTGTGA | -0.227
CGCAACCA | -0.0186
CTCCGGAC | 0.0504
CTTCAAAC | -0.0926
CTGGCAGC | -0.0391
AGGGGCAT | -0.153

Sample 2
Target: Interferon regulatory factor 7, full length, phosphomimetic (IRF7, Homo sapiens, UniProt Q92985, residues 1-503, S101K/S471D/S472D/S475D/S476D/S477D/S483D/S484D/S487D)
UniProt Q92985, sequence (whole entry, unmodified, looked up): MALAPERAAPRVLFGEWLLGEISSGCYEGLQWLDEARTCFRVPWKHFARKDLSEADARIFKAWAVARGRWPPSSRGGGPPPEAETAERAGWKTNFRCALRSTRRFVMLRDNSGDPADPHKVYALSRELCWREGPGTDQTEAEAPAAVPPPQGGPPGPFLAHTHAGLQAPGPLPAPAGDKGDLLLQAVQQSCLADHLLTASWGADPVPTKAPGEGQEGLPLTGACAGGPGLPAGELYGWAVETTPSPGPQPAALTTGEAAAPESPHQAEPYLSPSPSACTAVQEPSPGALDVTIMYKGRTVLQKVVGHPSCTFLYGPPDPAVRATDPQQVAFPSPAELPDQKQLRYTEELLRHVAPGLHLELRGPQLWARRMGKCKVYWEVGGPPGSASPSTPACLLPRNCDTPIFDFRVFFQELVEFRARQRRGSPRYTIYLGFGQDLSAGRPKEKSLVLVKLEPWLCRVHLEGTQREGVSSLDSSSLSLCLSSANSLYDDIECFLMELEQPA
Technique: protein-binding microarray
Form: double-stranded DNA, one strand shown
Medium: in vitro
Tested at: 250 nM
Notes: 60-bp whole probe
With: salmon DNA 0.4 mg/ml
Relative to: random background probes
Reading: higher = stronger binding
Shared flanks, not repeated: GCCTAGCAC … GTCTTGATTCGCTTGACGCTGCTG
Strand | log fluorescence
TTAGGACTGCACTTTCGGTTAGTGCTA | 1.46 z-score
GACGGTCTCGGTATCGCGACGTGCTAG | 1.57 z-score
GACGATCTCAGTCTCGTGACGTGCTAG | 0.0162 z-score
CGACATTTTTATTTGCCTTAGTGCTAG | 0.621 z-score
CAAGTTTTTATTTTCTGAATGTGCTAG | 2.02 z-score
GAAGAACTGAGTTTCGAGACGTGCTAG | 4.01 z-score
GACGATATCGGGTTTCGAGGCGTGCTA | 1.35 z-score
TCATAGCTTCCTTTCGCACTGTGCTAG | 0.309 z-score

Sample 3
Target: Replicase polyprotein 1ab, polymerase (rep, Severe acute respiratory syndrome coronavirus 2, UniProt P0DTD1)
Read-out: enzyme activity
Mode: inhibitor
Tested at: 20 µM
SMILES | inhibition
CC(C)n1c(/C=C/[C@@H](O)C[C@@H](O)CC(=O)O)c(-c2ccc(F)cc2)c2ccccc21 (racemic) | -0.26%
O=C(Nc1cccc(C(F)(F)F)c1)Nc1cc(S(=O)(=O)NC2CC2)ccc1-c1ccsc1 | 0.95%
CN(C)c1cccc(Oc2cnc(Nc3cccc(O)c3)nc2)c1 | -2.64%
COc1cc(C)c(/C=C/C(C)=C/C=C/C(C)=C/C(=O)O)c(C)c1C | 0.2%
CC(C)N(CCCCOCC(=O)NS(C)(=O)=O)c1cnc(-c2ccccc2)c(-c2ccccc2)n1 | -2.14%
Cc1cc(N2CCOCC2)ccc1Nc1nc(NC2CCCCC2)c2[nH]cnc2n1 | 0.91%
CC(OC(=O)OC1CCCCC1)OC(=O)C1=C(CSc2nnnn2CCN(C)C)CS[C@@H]2[C@H](NC(=O)Cc3csc(N)n3)C(=O)N12 (some centres unmarked) | 2.42%
CCCC[P+](CCCC)(CCCC)Cc1ccc(NC(=O)[C@H](Cc2ccc3ccccc3c2)NC(=NC2CCCCC2)NC2CCCCC2)cc1 | 40%
CN1[C@@H]2CC[C@H]1C[C@@H](OC(=O)c1c[nH]c3ccccc13)C2 | 1.71%
COc1cc2ncnc(Nc3cccc(Br)c3)c2cc1OC | -5.38%
O=S(=O)(N=Cc1c(O)ccc2ccccc12)c1cccs1 | 0.44%
CN(C)CCC=C1c2ccccc2CCc2ccccc21 | -3.52%
Nc1nc(=O)[nH]cc1F | -2.45%
CC(C)(COP(=O)(O)OP(=O)(O)OC[C@H]1O[C@@H](n2cnc3c(N)ncnc32)[C@H](O)[C@@H]1OP(=O)(O)O)[C@@H](O)C(=O)NCCC(=O)NCCS | -3.74%
CC(C)[C@H](C(=O)Nc1ccc(C(=O)NO)cc1)c1ccccc1 | -2.55%
Cc1cc(NC(=O)C(c2ccccc2)N2CCCc3ccccc32)no1 (centres unmarked) | 1.98%
NC(=O)c1cnc(N[C@@H]2CCCC[C@@H]2N)nc1Nc1cccc(-n2nccn2)c1 | -2.21%
CN1CCN(c2cc3c(cc2F)c(=O)c(C(=O)O)cn3-c2ccc(F)cc2)CC1 | 3.09%
Oc1ccc(C2CNCCc3c2cc(O)c(O)c3Cl)cc1 (centres unmarked) | 0.13%
O=C(O)/C=C/c1ccc(Cn2ccnc2)cc1 | -1.12%
Oc1ccccc1 | -0.43%
N[C@@H]1CCN(O)C1=O | 1.95%
O=c1[nH]c(=O)n([C@H]2C[C@H](O)[C@@H](CO)O2)cc1Br | 0.02%
O=C(O)CCCCCCNC1c2ccccc2CCc2ccccc21 | -9.35%
COc1cccc([C@@H](C)NCCCc2ccccc2Cl)c1 | 4.97%

Sample 4
Target: RNA binding protein fox-1 homolog 2, RRM domain, GST-SBP tag (RBFOX2, Homo sapiens, UniProt O43251-10, residues 100-194)
Technique: RNA Bind-n-Seq
Form: RNA
Medium: in vitro
Tested at: 365 nM
Notes: natural RNA segment, single round, ends assumed
Relative to: no-protein control
Reading: higher = stronger binding
Target sequence (chain): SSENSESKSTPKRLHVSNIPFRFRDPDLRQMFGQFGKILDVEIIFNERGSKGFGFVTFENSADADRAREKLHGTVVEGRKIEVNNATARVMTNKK
Strand | RBNS enrichment (R)
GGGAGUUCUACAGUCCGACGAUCUGGGAAAAGACCAGGGCUUUUCCCAGGAAUAUCCCAAACUUCGGAAACAAGUUAUUCUCUUCACUCCCAAUAACUAAUGCUAAGAAAUGCUGAAAAUCAAAGUAAAAAAUUGGAAUUCUCGGGUGCCAA | 0.706
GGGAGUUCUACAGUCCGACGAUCAUGUCAGGGUCUGUUCUAGUCUAUGUCAAGCAAUAACUGUCAGUGCAUAAAUCGAUUAGUCUGCUGUUGCUUAAGGCAGCAGCCCCAGGCAGCAUUUAAGCGGGAUCCUUUGGAAUUCUCGGGUGCCAA | 0.274
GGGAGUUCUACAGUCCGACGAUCAGAGAGUGAGAUGCCAUGCUGACAAUAUUAAGAUCUAUUUGAAUAUUUAGAAAUGUCUUACUGUAUAUAUGUUUAUGUUUAUUUGGUCCUUAGAGAUUAAAAGCGGUCAUUGGAAUUCUCGGGUGCCAA | 0.531
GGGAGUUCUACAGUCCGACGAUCUGAGGUCGGCGUUAUUUCCUCUCUCCCCCCACGUCAUCCUCCUCCGACACUGACGUCCACCGUGCAUGUGGCUGAGGGAGAGAGCCAGCUGGUUGUUUCUGGUAUAGCUGUGGAAUUCUCGGGUGCCAA | 3.09
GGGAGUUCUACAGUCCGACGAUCCUUUGUUCUCACACCCCACUGCCCAACAGAUUCCUUUGGAUGCUGUCUGGAACAGGAAAGAGGUAUAGGUGCCUAUCCACUGCCACUCUGCACGACUGAAGGGCCAGGCGUGGAAUUCUCGGGUGCCAA | 1.18
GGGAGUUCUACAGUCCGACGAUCUCAGUGUUUAUUUCCUCAAAACAGACUUUGUUAAUGUAGGAAAUCUCUCCAAGUGGAAACGUGCUAACUUUUUCUGUAAAUCUGAAAUAAAAGGUGCUGUUCCUUCCUCUUGGAAUUCUCGGGUGCCAA | 0.203
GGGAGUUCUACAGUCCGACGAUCCUGGGGUUCCCUGUUGGUGCCACAGGGCACUUCCUUAAAACCAGUACUGUACCAGAAAACUGAGGGUCCCAGUUCUGGUCCCACCACCUUCCAAGUGUUUGCCAUGUGGCUGGAAUUCUCGGGUGCCAA | 0.585
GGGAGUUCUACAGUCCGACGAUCCACACAAAAUCACCAAUGAUUCCGUUACCUUCUGGAGUAAGGACCCCACCCUCUCUGCAGCAAGGGGGCCCUCCUUGUCACUGACAUUUGCUAAACCGUGGCAAUUCAUCUGGAAUUCUCGGGUGCCAA | 0.405

Mixed results
SMILES | cell line | test | test system | setting | how to read | measurement | value
Cn1nnc2c(C(N)=O)ncn2c1=O | HEK-293T | pseudovirus infection, FDA-approved drug library screen | VSV pseudotyped with SARS-CoV-2 spike | 10 µM, 16 h | relative to: vehicle-treated | GFP-positive cells | 89.3%

A few entries again (sample 3):
SMILES | inhibition
CC(OC(=O)OC1CCCCC1)OC(=O)C1=C(CSc2nnnn2CCN(C)C)CS[C@@H]2[C@H](NC(=O)Cc3csc(N)n3)C(=O)N12 (some centres unmarked) | 2.42%
CCCC[P+](CCCC)(CCCC)Cc1ccc(NC(=O)[C@H](Cc2ccc3ccccc3c2)NC(=NC2CCCCC2)NC2CCCCC2)cc1 | 40%
CN1[C@@H]2CC[C@H]1C[C@@H](OC(=O)c1c[nH]c3ccccc13)C2 | 1.71%
